Published values from different studies.
Protocols differ between the studies behind these lines. ± marks the error that the study gave.
Oprm1: Mu-type opioid receptor (Oprm1, Rattus norvegicus, UniProt P33535)
Melanocortin receptor 5: Melanocortin receptor 5 (Mus musculus, UniProt P41149)
lasR: Transcriptional activator protein LasR (lasR, Pseudomonas aeruginosa, UniProt P25084)
ATP5F1B/ATP5F1A/ATP synthase F(1) complex subunit gamma, mitochondrial: ATP5F1B/ATP5F1A/ATP synthase F(1) complex subunit gamma, mitochondrial (Homo sapiens, UniProt P06576+P25705+P36542)
Melanocortin receptor 3: Melanocortin receptor 3 (Mus musculus, UniProt P33033)
Gonadotropin-releasing hormone receptor: Gonadotropin-releasing hormone receptor (Rattus norvegicus, UniProt P30969)

| SMILES | target | assay | test system | conditions | EC50 [nM] |
| --- | --- | --- | --- | --- | --- |
| N[C@H](C(=O)N1CCCC1)C1CCN(c2nccc3c(-c4ncc(Cl)cc4Cl)cccc23)CC1 | Protein-arginine deiminase type-2 (PADI2, Homo sapiens, UniProt Q9Y2J8) | thermal stability |  |  | 2040 |
| Cc1cc(O)cc(C)c1CC(N)C(=O)NC1CCNc2c(C(=O)Nc3ccccc3)cc(Cc3ccccc3)cc21 (centres unmarked) | Oprm1 | GTPγS binding, agonist, radiometric |  | cell membranes | 1.2 |
| CC(=O)N[C@@H](CCCNC(=N)N)C(=O)N[C@@H](CCCNC(=N)N)C(=O)N[C@H](C(=O)N1Cc2ccccc2C[C@H]1C(N)=O)[C@@H](c1ccccc1)c1c[nH]c2ccccc12 | Melanocortin receptor 5 | cAMP, agonist, AlphaScreen |  |  | > 100000 |
| Cc1cc(O)cc(C)c1CC(N)C(=O)NC1CCNc2c(Cc3ccccc3)cc(Cc3ccccc3)cc21 (centres unmarked) | Oprm1 | GTPγS binding, agonist, radiometric |  | cell membranes | 4 |
| CCN(Cc1ccccc1)C(=O)CCc1nc(CN2CCN(C(=O)Cc3ccc(OC)c(OC)c3)CC2)no1 | Voltage-gated potassium channel, KQT; KCNQ2(Kv7.2)/KCNQ3(Kv7.3) (KCNQ3/KCNQ2, Homo sapiens, UniProt O43525+O43526) | ion current, opener, whole-cell patch clamp | CHO stably expressing channel | shift of activation midpoint | 2560 ± 460 |
| CCCCCCCCCC(=O)CC(=O)Nc1cccc(OC)c1 | lasR | reporter gene, agonist | Escherichia coli, JLD271 with LasR plasmid |  | > 100000 |
| CC(=O)N1CCCC[C@H]1C(=O)NC(C)(C)C(=O)N1CCCC[C@H]1C(=O)NC(C)(C)C(=O)NC(C)(C)C(=O)N[C@@H](CC(C)C)C(=O)N[C@@H](C)CC(=O)NCC(=O)NC(C)(C)C(=O)NC(C)(C)C(=O)N1CCCC[C@H]1C(=O)NC(C)(C)C(=O)NCC(=O)N[C@@H](CC(C)C)C(=O)NC(C)(C)C(=O)N[C@@H](CC(C)C)C[N+]1=C2CCCN2CCC1 | ATP5F1B/ATP5F1A/ATP synthase F(1) complex subunit gamma, mitochondrial | ATP production, inhibitor | permeabilized MCF7 |  | 0.92 ± 0.17 |
| Cc1cc(O)cc(C)c1CC(N)C(=O)NC1CCNc2c1cc(Cc1ccccc1)cc2C(C)(C)C (centres unmarked) | Oprm1 | GTPγS binding, agonist, radiometric |  | cell membranes | 9.9 |
| CC(=O)N1CCCC[C@H]1C(=O)NC(C)(C)C(=O)N1CCCC[C@H]1C(=O)NC(C)(C)C(=O)NC(C)(C)C(=O)N[C@@H](CC(C)C)C(=O)NCCC(=O)N[C@@H](C)C(=O)NC(C)(C)C(=O)NC(C)(C)C(=O)N1CCCC[C@H]1C(=O)NC(C)(C)C(=O)NCC(=O)N[C@@H](CC(C)C)C(=O)NC(C)(C)C(=O)N[C@@H](CC(C)C)C[N+]1=C2CCCN2CCC1 | ATP5F1B/ATP5F1A/ATP synthase F(1) complex subunit gamma, mitochondrial | ATP production, inhibitor | permeabilized MCF7 |  | 1.2 ± 0.4 |
| Nc1ncnc2c1ncn2C1OC(COP(=O)(O)OP(=O)(O)OCC2OC(O)C(O)C2O)C(O)C1O (centres unmarked) | TRPM2 (Nematostella vectensis, UniProt A7T1N0, T307A) | channel activation, agonist, inside-out patch clamp |  | T307A, 2.5 µM PIP2, together with: 125 µM Ca2+ | 31000 ± 2000 |
| C[C@@H]1NC(=O)[C@H](CC(N)=O)N2C[C@H](Cc3c[nH]c4ccccc34)NC(=O)[C@@H](CSCC2=O)NC(=O)[C@H](CCCNC(=N)N)NC(=O)[C@@H](Cc2ccccc2)NC(=O)[C@H](Cc2c[nH]cn2)NC(=O)[C@@H](NC(=O)[C@@H](N)Cc2ccc(O)cc2)CSSC[C@@H](C(=O)N[C@@H](Cc2ccc(O)cc2)C(N)=O)NC(=O)[C@H](Cc2ccccc2)NC1=O | Melanocortin receptor 3 | reporter gene, agonist |  |  | 5300 |
| O=C(NCc1cc(Br)cc(Br)c1OC(=O)c1ccccc1[N+](=O)[O-])c1ccccc1Cl | lasR | reporter gene, agonist | Escherichia coli, JLD271 with LasR plasmid |  | 7.8 |
| C[C@@H]1NC(=O)[C@H](CC(N)=O)NC(=O)[C@H](Cc2c[nH]c3ccccc23)NC(=O)[C@H](CCCNC(=N)N)NC(=O)[C@@H](Cc2ccccc2)NC(=O)[C@H](Cc2c[nH]cn2)NC(=O)[C@@H](NC(=O)[C@@H](N)Cc2ccc(O)cc2)CCCn2cc(nn2)-c2cccc(c2)-c2cn(nn2)CCC[C@@H](C(=O)N[C@@H](Cc2ccc(O)cc2)C(N)=O)NC(=O)[C@H](Cc2ccccc2)NC1=O | Melanocortin receptor 3 | agonist |  |  | 1940 ± 687 |
| CCCCCC(=O)CC(=O)N[C@H]1CCOC1=O | lasR | reporter gene, agonist | Escherichia coli, JLD271 with LasR plasmid |  | 4500 |
| CC(=O)N[C@@H](Cc1ccc(O)cc1)C(=O)N[C@@H](CCCNC(=N)NC(=O)NCCCCN)C(=O)N[C@@H](CC(C)C)C(=O)N[C@@H](CCCNC(=N)N)C(=O)N[C@@H](Cc1ccc(O)cc1)C(N)=O | Neuropeptide Y receptor type 4 (NPY4R, Homo sapiens, UniProt P50391) | calcium signal, agonist |  |  | 1460 |
| CC(C)C[C@H](NC(=O)[C@@H](CCCNC(=N)N)NC(=O)[C@H](Cc1c[nH]cn1)NC(=O)[C@H](CO)NC(=O)[C@H](Cc1c[nH]c2ccccc12)NC(=O)[C@H](Cc1c[nH]cn1)NC(=O)[C@@H]1CCC(=O)N1)C(=O)N[C@@H](CCCNC(=N)N)C(=O)N1CCC[C@H]1C(=O)NCC(N)=O | Gonadotropin-releasing hormone receptor | inositol phosphate accumulation, agonist | HEK293 expressing Gonadotropin-releasing hormone receptor | 60 min, 37 °C, together with: 10 mM LiCl | 45 ± 6.9 |
| CCCc1cc(Cc2ccccc2)cc2c1NCCC2NC(=O)C(N)Cc1c(C)cc(O)cc1C (centres unmarked) | Oprm1 | GTPγS binding, agonist, radiometric |  | cell membranes | 23 |
| O=C(Nn1c(-c2cccc(Cl)c2)nc2ccccc2c1=O)c1ccccc1 | TRPM channel TRPM_PZQ (Schistosoma mansoni, UniProt A0A5K4F0X5) |  |  |  | 90 ± 20 |
| CC(=O)N1CCCC[C@H]1C(=O)NC(C)(C)C(=O)N1CCCC[C@H]1C(=O)NC(C)(C)C(=O)NC(C)(C)C(=O)N[C@@H](CC(C)C)C(=O)NC[C@@H](C)C(=O)NCC(=O)NC(C)(C)C(=O)NC(C)(C)C(=O)N1CCCC[C@H]1C(=O)NC(C)(C)C(=O)NCC(=O)N[C@@H](CC(C)C)C(=O)NC(C)(C)C(=O)N[C@@H](CC(C)C)C[N+]1=C2CCCN2CCC1 | ATP5F1B/ATP5F1A/ATP synthase F(1) complex subunit gamma, mitochondrial | ATP production, inhibitor | permeabilized MCF7 |  | 1.1 ± 0.1 |
| C=C[C@]12CCC(=O)C=C1CC[C@H]1[C@@H]3CC[C@H](C(C)=O)[C@@]3(C)CC[C@@H]12 | Membrane progesterone receptor epsilon (Paqr9, Mus musculus, UniProt Q6TCG2) | reporter gene, agonist | Paqr9-GFP cells | 6 h | 11.3 |
| O=C(CCc1ccc(C(F)(F)F)cc1)N[C@H]1CCOC1=O | lasR | reporter gene, agonist | Escherichia coli, JLD271 with LasR plasmid |  | 650 |
| Cc1cc(C2=CCN(CC3OCCO3)CC2)cc([N+](=O)[O-])c1N | 5-hydroxytryptamine receptor 2B (HTR2B, Homo sapiens, UniProt P41595) | β-arrestin recruitment, agonist |  |  | 8130 |
| CS(=O)(=O)c1cccc(OCCCC(=O)NC2CC3CC3C2O)c1 (centres unmarked) | Transcriptional activator protein LasR (lasR, Pseudomonas aeruginosa, UniProt P25084, R61A) | reporter gene, agonist | Escherichia coli lasB-lux reporter |  | > 100000 |
| CC(=O)N[C@@H](CCCNC(=N)N)C(=O)N[C@@H](CCCNC(=N)N)C(=O)N[C@H](Cc1ccc(I)cc1)C(=O)N[C@H](C(N)=O)[C@H](c1ccccc1)c1c[nH]c2ccccc12 | Melanocortin receptor 5 | cAMP, agonist, AlphaScreen |  |  | 240 |
| Cn1ccc(-c2ccc(Cn3cc(C(=O)N[C@H]4CCCC[C@@H]4O)c4c(F)cc(F)cc43)cn2)n1 | Muscarinic acetylcholine receptor M1 (Chrm1, Mus musculus, UniProt P12657) | calcium mobilisation, positive allosteric modulator | CHO | together with: acetylcholine EC20 | 263 |
| NCCCC[C@@H](NC(=O)[C@H](Cc1c[nH]cn1)NC(=O)[C@H](CO)NC(=O)[C@H](Cc1c[nH]c2ccccc12)NC(=O)[C@H](Cc1c[nH]cn1)NC(=O)[C@@H]1CCC(=O)N1)C(=O)N[C@@H](Cc1c[nH]c2ccccc12)C(=O)N[C@@H](Cc1ccc(O)cc1)C(=O)N1CCC[C@H]1C(=O)NCC(N)=O | Gonadotropin-releasing hormone receptor | inositol phosphate accumulation, agonist | HEK293 expressing Gonadotropin-releasing hormone receptor | 60 min, 37 °C, together with: 10 mM LiCl | 1.7 ± 0.06 |

A few entries again:
| SMILES | target | assay | test system | conditions | EC50 [nM] |
| --- | --- | --- | --- | --- | --- |
| Cc1cc(C2=CCN(CC3OCCO3)CC2)cc([N+](=O)[O-])c1N | 5-hydroxytryptamine receptor 2B (HTR2B, Homo sapiens, UniProt P41595) | β-arrestin recruitment, agonist |  |  | 8130 |
| CS(=O)(=O)c1cccc(OCCCC(=O)NC2CC3CC3C2O)c1 (centres unmarked) | Transcriptional activator protein LasR (lasR, Pseudomonas aeruginosa, UniProt P25084, R61A) | reporter gene, agonist | Escherichia coli lasB-lux reporter |  | > 100000 |
